Assay results from different studies.
Each numbered part is a random draw from the data of one study; scales do not carry over between parts. Positions count from the first letter of the parent shown.
Sequence of UniProt Q01959 (whole entry, looked up): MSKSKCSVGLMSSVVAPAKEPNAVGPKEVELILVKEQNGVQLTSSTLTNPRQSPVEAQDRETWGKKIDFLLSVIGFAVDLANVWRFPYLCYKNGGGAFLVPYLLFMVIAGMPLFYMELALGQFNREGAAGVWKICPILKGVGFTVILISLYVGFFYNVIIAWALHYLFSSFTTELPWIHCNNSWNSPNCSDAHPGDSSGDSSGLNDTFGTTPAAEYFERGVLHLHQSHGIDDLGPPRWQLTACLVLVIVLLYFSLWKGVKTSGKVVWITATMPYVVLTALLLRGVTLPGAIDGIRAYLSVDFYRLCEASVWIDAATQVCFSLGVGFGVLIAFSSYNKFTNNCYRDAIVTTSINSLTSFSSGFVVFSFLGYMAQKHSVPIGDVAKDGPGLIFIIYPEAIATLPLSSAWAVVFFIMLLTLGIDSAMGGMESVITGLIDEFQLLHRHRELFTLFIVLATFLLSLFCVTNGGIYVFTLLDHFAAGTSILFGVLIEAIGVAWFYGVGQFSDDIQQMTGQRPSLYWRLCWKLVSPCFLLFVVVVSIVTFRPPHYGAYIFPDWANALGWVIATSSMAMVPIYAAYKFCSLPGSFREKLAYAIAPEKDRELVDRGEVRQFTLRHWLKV
Sequence of UniProt O14976 (whole entry, looked up): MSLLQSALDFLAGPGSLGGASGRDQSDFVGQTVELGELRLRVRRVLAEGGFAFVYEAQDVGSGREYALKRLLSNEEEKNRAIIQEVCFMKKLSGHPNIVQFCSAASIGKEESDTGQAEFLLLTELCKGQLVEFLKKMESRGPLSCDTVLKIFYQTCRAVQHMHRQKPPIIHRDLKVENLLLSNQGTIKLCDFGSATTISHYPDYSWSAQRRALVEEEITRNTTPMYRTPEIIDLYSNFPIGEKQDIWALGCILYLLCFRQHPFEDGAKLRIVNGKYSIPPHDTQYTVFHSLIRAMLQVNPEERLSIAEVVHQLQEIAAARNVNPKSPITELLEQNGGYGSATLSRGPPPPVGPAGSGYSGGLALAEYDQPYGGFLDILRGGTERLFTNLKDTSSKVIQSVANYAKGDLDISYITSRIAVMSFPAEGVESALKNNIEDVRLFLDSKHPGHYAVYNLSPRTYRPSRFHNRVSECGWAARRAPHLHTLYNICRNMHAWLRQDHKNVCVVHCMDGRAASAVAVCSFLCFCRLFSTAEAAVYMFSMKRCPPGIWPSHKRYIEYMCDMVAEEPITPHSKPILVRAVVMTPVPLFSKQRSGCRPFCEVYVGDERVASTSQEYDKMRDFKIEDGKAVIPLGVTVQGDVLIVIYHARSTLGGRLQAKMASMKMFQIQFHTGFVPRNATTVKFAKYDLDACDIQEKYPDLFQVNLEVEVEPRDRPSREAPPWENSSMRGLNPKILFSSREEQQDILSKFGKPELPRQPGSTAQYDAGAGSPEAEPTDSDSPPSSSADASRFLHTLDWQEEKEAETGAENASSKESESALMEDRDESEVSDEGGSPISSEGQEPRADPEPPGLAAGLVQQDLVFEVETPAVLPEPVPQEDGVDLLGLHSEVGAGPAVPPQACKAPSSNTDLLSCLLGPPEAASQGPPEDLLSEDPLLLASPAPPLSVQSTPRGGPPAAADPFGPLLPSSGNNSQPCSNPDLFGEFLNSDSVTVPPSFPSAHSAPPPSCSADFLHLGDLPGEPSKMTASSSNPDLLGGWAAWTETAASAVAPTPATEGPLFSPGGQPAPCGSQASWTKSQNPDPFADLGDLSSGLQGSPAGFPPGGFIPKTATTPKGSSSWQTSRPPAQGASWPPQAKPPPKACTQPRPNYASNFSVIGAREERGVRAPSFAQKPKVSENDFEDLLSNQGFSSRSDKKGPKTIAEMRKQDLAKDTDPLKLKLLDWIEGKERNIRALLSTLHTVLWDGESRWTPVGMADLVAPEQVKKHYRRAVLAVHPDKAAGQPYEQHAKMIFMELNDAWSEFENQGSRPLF

Study 1
Target: CCND2, cyclin fold, Cln2 fusion (human)
Technique: yeast growth competition, sequencing
Sample: yeast
Setting: weak parent motif
Reference: not given
Direction: higher = stronger binding
Measurement: normalised enrichment score
Starting sequence: viral docking peptide; TSVRRALFTGGSD
F8C: -0.296
V3L: 0.175
G10I: 0.22
R5I: 0.151
F8T: -0.159
L7R: 0.104
R4Y: 0.397
V3T: -0.0379

Study 2
Structure (SMILES): O=C1CCC(N2Cc3c(ccc4c3OCC43CCN(Cc4ccccc4)CC3)C2=O)C(=O)N1 (stereo not drawn)
Target: CRBN/Zinc finger protein Helios (Homo sapiens, UniProt Q96SW2+Q9UKS7)
Sequence of UniProt Q9UKS7 (whole entry, looked up): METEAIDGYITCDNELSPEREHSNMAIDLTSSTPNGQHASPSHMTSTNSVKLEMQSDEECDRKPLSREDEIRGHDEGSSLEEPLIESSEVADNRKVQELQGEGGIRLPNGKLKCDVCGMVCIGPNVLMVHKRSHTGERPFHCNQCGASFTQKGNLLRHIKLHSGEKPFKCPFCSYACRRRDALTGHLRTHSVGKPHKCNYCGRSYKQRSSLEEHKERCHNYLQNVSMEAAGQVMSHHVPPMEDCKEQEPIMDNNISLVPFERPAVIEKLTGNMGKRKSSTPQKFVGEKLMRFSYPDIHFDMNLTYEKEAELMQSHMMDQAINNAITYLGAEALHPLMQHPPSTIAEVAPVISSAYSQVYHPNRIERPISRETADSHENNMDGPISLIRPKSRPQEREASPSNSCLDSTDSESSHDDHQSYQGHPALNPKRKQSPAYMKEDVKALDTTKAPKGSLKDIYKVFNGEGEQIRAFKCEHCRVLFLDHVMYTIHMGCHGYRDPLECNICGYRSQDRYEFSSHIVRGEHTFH
Sequence of UniProt Q96SW2 (whole entry, looked up): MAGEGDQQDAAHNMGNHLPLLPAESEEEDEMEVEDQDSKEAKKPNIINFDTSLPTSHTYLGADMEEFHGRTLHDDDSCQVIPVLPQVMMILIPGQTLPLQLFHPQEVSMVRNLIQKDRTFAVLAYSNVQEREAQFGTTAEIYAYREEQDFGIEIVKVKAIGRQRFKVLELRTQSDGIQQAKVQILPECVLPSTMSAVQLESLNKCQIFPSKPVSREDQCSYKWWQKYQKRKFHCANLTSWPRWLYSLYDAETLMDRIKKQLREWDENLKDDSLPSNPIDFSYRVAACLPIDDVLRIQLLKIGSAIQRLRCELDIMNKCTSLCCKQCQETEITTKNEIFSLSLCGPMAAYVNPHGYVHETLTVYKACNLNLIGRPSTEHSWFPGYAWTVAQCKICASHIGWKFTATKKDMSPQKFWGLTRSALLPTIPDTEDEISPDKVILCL
Action: degrader
Technique: HiBiT
Cell line: HEK293
Measurement: protein remaining
123.5 nM, 6 h: 80.2%
1.524 nM: 92.8%
3333.33 nM: 35.2%
1111.11 nM, 6 h: 54.3%

Study 3
Target: tungstate, free oxyanion
Technique: microfluidic competitive inhibition
Sample: in vitro, cell-free expressed
Tested at: not given
Setting: derived from inhibition constants, unchanged parent 2230 nM
Direction: lower = stronger binding
Measurement: oxyanion analog dissociation constant
Starting sequence: PafA, mature enzyme, eGFP fusion (Elizabethkingia meningoseptica, UniProt Q9KJX5); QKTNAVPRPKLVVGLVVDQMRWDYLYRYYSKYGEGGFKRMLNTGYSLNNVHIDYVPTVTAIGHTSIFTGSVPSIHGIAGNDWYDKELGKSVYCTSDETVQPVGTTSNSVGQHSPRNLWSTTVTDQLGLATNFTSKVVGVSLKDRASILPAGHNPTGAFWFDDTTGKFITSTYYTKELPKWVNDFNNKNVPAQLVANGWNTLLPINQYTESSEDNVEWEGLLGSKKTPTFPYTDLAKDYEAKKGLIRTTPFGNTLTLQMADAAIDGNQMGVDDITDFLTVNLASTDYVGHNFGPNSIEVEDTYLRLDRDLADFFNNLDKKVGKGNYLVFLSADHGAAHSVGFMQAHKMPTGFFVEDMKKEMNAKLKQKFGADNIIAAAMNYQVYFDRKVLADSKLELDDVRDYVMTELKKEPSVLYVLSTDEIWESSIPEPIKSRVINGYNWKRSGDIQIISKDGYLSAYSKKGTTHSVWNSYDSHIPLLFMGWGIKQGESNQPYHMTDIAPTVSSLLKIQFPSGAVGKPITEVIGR
M342V: 2.4 µM
P149V: 894 nM
Y207V: 1.95 µM
V136A: 1.97 µM
Y24V: 2.08 µM
N314V: 2.17 µM
A261V: 2.36 µM
M268V: 2.34 µM

Mixed results
CDPK1: Calcium-dependent protein kinase 1 (CDPK1, Plasmodium falciparum, UniProt P62344)
Cc1c(C(=O)O)cc(-c2ccc(C3CCNCC3)cc2)c2ccc(-c3ccc(C(F)(F)F)cc3)cc12 — remaining binding (CDPK1; cell-free assay, competition with immobilised ligand; 1 µM): 100%
COc1ccc2c(c1)O[C@@H](c1ccc(OC)c(OC)c1)C[C@H]2NC(=O)C1(c2ccc3c(c2)OC(F)(F)O3)CC1 — remaining binding (CDPK1; cell-free assay, competition with immobilised ligand; 1 µM): 70%
O=C(NCc1ncc(C(F)(F)F)cc1Cl)c1ccc2c(c1)C1(CCS(=O)(=O)CC1)[C@@H](C1CC1)N2S(=O)(=O)c1ccc(F)cc1 — remaining binding (GAK (Homo sapiens, UniProt O14976); cell-free assay, competition with immobilised ligand; 1 µM): 96%
CNC(=O)Nc1ccc2c(c1)CC[C@]21OC(=O)N(CC(=O)N(Cc2ccc(F)cc2)[C@@H](C)C(F)(F)F)C1=O — inhibition (SLC6A3 (Homo sapiens, UniProt Q01959); ligand displacement; 10 µM): 63.9%

Repeated from above (mixed results):
Cc1c(C(=O)O)cc(-c2ccc(C3CCNCC3)cc2)c2ccc(-c3ccc(C(F)(F)F)cc3)cc12 — remaining binding (CDPK1; cell-free assay, competition with immobilised ligand; 1 µM): 100%
COc1ccc2c(c1)O[C@@H](c1ccc(OC)c(OC)c1)C[C@H]2NC(=O)C1(c2ccc3c(c2)OC(F)(F)O3)CC1 — remaining binding (CDPK1; cell-free assay, competition with immobilised ligand; 1 µM): 70%
